Results pooled from the literature.
Every numbered part comes from another study and shows a few of its results, in no order.

Sample 1 — technique: protein binding microarray; form: double-stranded DNA, one strand shown; matrix: in vitro; tested at: not given; relative to: not given; direction: higher = stronger binding
Target: Histone acetyltransferase KAT6A, winged helix 2, GST fusion (KAT6A, Homo sapiens, UniProt Q92794, residues 85-181)
Setting: 8-mer, flanks averaged, mean of 2 arrays, mostly near background
Construct (chain): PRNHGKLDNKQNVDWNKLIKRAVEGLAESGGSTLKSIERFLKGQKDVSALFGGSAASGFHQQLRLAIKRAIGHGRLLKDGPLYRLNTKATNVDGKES
| Strand | E-score |
| --- | --- |
| GAAAAGTC | -0.152 |
| ATCTTATC | -0.0212 |
| CCACGGAC | -0.111 |
| GCGTTACC | -0.0759 |
| AGTAAATA | 0.0365 |
| ACTCCAGG | -0.0812 |

Sample 2 — technique: protein-binding microarray; form: double-stranded DNA, one strand shown; matrix: in vitro; tested at: 250 nM; setting: 60-bp whole probe; together with: salmon DNA 0.4 mg/ml; relative to: random background probes; direction: higher = stronger binding
Target: Interferon regulatory factor 7, full length, phosphomimetic (IRF7, Homo sapiens, UniProt Q92985, residues 1-503, S101K/S471D/S472D/S475D/S476D/S477D/S483D/S484D/S487D)
Sequence of UniProt Q92985 (whole entry, unmodified, looked up): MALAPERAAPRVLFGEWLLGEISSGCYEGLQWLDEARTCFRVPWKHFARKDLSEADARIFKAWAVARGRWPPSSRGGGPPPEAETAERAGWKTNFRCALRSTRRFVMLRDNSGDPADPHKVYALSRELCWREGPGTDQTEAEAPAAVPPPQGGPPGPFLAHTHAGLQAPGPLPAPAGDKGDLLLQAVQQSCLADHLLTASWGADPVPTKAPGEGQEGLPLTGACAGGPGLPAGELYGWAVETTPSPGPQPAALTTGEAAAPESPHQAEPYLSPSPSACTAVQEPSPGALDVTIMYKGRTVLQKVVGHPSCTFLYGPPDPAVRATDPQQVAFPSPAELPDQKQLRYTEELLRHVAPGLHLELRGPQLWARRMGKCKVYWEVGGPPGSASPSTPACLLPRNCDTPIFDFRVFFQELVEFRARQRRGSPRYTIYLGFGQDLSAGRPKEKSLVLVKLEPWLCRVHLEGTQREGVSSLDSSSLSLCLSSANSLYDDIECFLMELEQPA
| Strand | log fluorescence [z-score] |
| --- | --- |
| GCCTAGCACTTAGATTTCGGGTATCGACTAGTGCTAGTCTTGATTCGCTTGACGCTGCTG | 0.893 |
| GCCTAGCACTTAGGTATCCTTATCGTTTAGTGCTAGGTCTTGATTCGCTTGACGCTGCTG | 0.631 |
| GCCTAGCACGACGGTATCGACACTGGGAACGTGCTAGTCTTGATTCGCTTGACGCTGCTG | -0.287 |
| GCCTAGCACTACGGTATCGGTCTCGGGACGTGCTAGGTCTTGATTCGCTTGACGCTGCTG | 0.721 |

Sample 3 — technique: aptamer microarray, sandwich; form: DNA with 2'F-ANA; matrix: in vitro; tested at: 200 nM; together with: Cy3 exosite-II aptamer, 400 nM; direction: higher = stronger binding
Target: Prothrombin, mature alpha-thrombin (F2, Homo sapiens, UniProt P00734)
Setting: whole 15-mer aptamer, many near background
| Strand | mean fluorescence intensity [a.u.] |
| --- | --- |
| GGTTGGTGTGGTTGG (2'F-ANA at 1 2 3 7 9 12 15) | 529 |
| GGTTGGTGTGGTTGG (2'F-ANA at 2 3 4 5 7 8 9 10 12 13 14 15) | 55.5 |
| GGTTGGTGTGGTTGG (2'F-ANA at 1 2 3 7 8 11 12 13 14) | 99.2 |
| GGTTGGTGTGGTTGG (2'F-ANA at 1 5 6 7 8 11 12 13) | 74.6 |

Other studies, line by line
| Molecule | target | assay | system | setting | scale | measurement | value |
| --- | --- | --- | --- | --- | --- | --- | --- |
| PhoQ, residues 284 288 289 292 302 303 ASVMEA | PhoP, residues 12 14 15 18 19 NMSFL (Escherichia coli, UniProt P23836) | Sort-seq, measured: YFP reporter | E. coli | PhoQ-PhoP variant library, together with: 10 µM Mg2+ | relative to: high Mg2+ state, higher = stronger signaling | fold induction | 25.9 |
